{"data": "Published values collected from several papers", "note": "Protocols differ between the studies behind these lines. Values joined by “and” are separate records of one study, mostly repeats; a detail may differ.", "sequence of UniProt P17812 (whole entry, looked up)": "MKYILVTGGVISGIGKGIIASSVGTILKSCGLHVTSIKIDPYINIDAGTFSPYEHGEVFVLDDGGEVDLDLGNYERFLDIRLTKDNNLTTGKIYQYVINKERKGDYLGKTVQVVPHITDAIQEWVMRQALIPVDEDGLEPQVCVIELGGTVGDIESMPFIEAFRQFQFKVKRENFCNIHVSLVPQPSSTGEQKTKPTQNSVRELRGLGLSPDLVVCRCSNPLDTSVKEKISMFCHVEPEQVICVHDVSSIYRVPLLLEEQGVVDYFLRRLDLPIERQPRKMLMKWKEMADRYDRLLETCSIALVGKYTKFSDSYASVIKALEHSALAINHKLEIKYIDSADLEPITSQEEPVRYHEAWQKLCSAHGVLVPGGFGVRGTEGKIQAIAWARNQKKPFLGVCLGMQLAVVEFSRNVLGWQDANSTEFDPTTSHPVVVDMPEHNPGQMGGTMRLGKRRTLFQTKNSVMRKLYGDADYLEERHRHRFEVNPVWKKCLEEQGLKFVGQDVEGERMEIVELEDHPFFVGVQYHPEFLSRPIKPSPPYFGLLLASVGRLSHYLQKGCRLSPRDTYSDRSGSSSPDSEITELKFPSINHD"}
{"SMILES": "CC[C@H](C)[C@H](NC(=O)[C@H](Cc1ccccc1)NC(=O)[C@H](CCC(=O)O)NC(=O)[C@H](CCCNC(=N)N)NC(=O)[C@H](C)NC(=O)[C@H](C)NC(=O)[C@H](CCC(N)=O)NC(=O)[C@H](CCC(=O)O)NC(=O)[C@H](CCC(=O)O)NC(=O)[C@H](CC(C)C)NC(=O)[C@H](Cc1ccc(O)cc1)NC(=O)[C@H](CO)NC(=O)[C@H](CO)NC(=O)[C@@H](NC(=O)[C@H](CC(=O)O)NC(=O)[C@H](CO)NC(=O)[C@@H](NC(=O)[C@H](Cc1ccccc1)NC(=O)[C@@H](NC(=O)CNC(=O)[C@H](CCC(=O)O)NC(=O)[C@H](C)NC(=O)CCc1c[nH]cn1)[C@@H](C)O)[C@@H](C)O)C(C)C)C(=O)N[C@@H](C)C(=O)N[C@@H](Cc1c[nH]c2ccccc12)C(=O)N[C@@H](CC(C)C)C(=O)N[C@H](C(=O)N[C@@H](CCCNC(=N)N)C(=O)NCC(=O)N[C@@H](CCCNC(=N)N)C(=O)N[C@@H](CCCCNC(=O)COCCOCCNC(=O)COCCOCCNC(=O)CC[C@H](NC(=O)CCCCCCCCCCCCCCCCC(=O)O)C(=O)O)C(=O)NCC(=O)NCC(=O)N[C@@H](CO)C(=O)N[C@@H](CCCCNc1c(NCCCCCN(O)C(=O)CCC(=O)NCCCCCN(O)C(=O)CCC(=O)NCCCCCN(O)C(C)=O)c(=O)c1=O)C(=O)O)C(C)C [zirconium-89 labelled]", "test system": "rat, colon", "conditions": "sc, 3 nmol/kg, 4 h, ex vivo", "measurement": "tissue uptake", "value": "0.18 %ID/g"}
{"SMILES": "Cc1nn(-c2nc3ccc(Cl)c(Cl)c3[nH]2)c(O)c1C1OC(=O)c2ccccc21 (stereo not drawn)", "tested on": "RAW-ISG", "test": "CCK-8", "conditions": "10 µM", "measurement": "viability", "value": "96.6% and 98.5% and 113% and 114% and 108%"}
{"SMILES": "C[C@@H]1C[C@@H]([C@H](O)CC2CC(=O)NC(=O)C2)C(=O)[C@@H](C)C1", "tested on": "MCF-10A", "test": "CellTiter-Glo", "conditions": "concentration not given", "scale": "baseline: normalised, mean of replicates", "measurement": "viability", "value": "76.1%"}
{"SMILES": "C[C@H]1CN(c2n[nH]c3nc(N[C@H]4CC[C@H](NS(=O)(=O)CCC(F)(F)F)CC4)ncc23)CCO1", "tested on": "CTP synthase 1 (Homo sapiens, UniProt P17812)", "test": "Kinobeads competition, measured: CTPS", "conditions": "0.032 µM, unit not given", "scale": "baseline: vehicle", "measurement": "remaining binding", "value": 1.04}
{"SMILES": "COP(=O)(OC)OC=C(Cl)Cl", "tested on": "MCF-10A", "test": "CellTiter-Glo", "conditions": "concentration not given", "scale": "baseline: normalised, mean of replicates", "measurement": "viability", "value": "105%"}
{"SMILES": "C=C[C@@]12CN(C)[C@H]3C[C@]14C(=Nc1ccccc14)[C@@H]1C[C@@H]2[C@@H]3CO1", "tested on": "HT-22", "test": "CCK-8", "conditions": "up to 100 µM, 24 h", "measurement": "viability", "value": "no effect"}
{"SMILES": "CN(C)NC(=O)CCC(=O)O", "tested on": "OCI-Ly1", "conditions": "0.5 µM, 120 h", "measurement": "viability", "value": "125%"}
{"SMILES": "CCC1=N[C@H]2C[C@@]3(C(=O)N(OC)c4ccccc43)[C@H]3C[C@@H]1[C@@H]2CO3", "tested on": "HT-22", "test": "CCK-8", "conditions": "up to 100 µM, 24 h", "measurement": "viability", "value": "no effect"}
{"SMILES": "COC[C@@H]([C@H](O)[C@H](O)C(=O)NCC[C@H](C)c1nc(/C=C/C[C@@H]2O[C@]3(C[C@@H](O)[C@@H]2C)O[C@H]([C@H](C[C@H](O)[C@H](C)[C@H](O)[C@H](C)/C=C(C)/C(C)=C/C=C/C(C)=C\\C#N)OC)[C@H](OP(=O)(O)O)C3(C)C)co1)N(C)C", "tested on": "MCF-10A", "test": "CellTiter-Glo", "conditions": "concentration not given", "scale": "baseline: normalised, mean of replicates", "measurement": "viability", "value": "121%"}
{"SMILES": "N[C@@H]1C[C@H]1c1ccccc1", "tested on": "OCI-Ly1", "conditions": "1 µM, 120 h", "measurement": "viability", "value": "142%"}
{"SMILES": "CC(C)[C@H](N)C(=O)N1CCC[C@H]1B(O)O", "tested on": "Ker-CT CASP1 knockout", "test": "cell death, CellTiter-Glo", "conditions": "2 µM", "measurement": "viability", "value": "98.2% and 97% and 98.3%"}
{"SMILES": "CC[C@H](C)[C@@H]1NC(=O)[C@@H]2CCCN2C(=O)[C@H](CC(C)C)NC(=O)[C@H](CC(C)C)NC(=O)CNC(=O)[C@@H](NC(=O)[C@@H](NC(=O)[C@H](CC(=O)O)NC(=O)CNC(=O)[C@@H](NC(=O)[C@H](C)NC(=O)CNC(=O)[C@H](CCCCN)NC(=O)[C@H](CC(C)C)NC(=O)[C@H](CC(C)C)NC(=O)[C@H](CCCCN)NC(=O)CNC(=O)[C@@H](NC(=O)[C@@H](N)CC(C)C)C(C)C)C(C)C)C(C)C)CSSC[C@@H](C(=O)O)NC1=O", "test": "RNA-seq, measured: Nfil3", "test system": "mouse, traumatic brain injury model, frontal cortex and hippocampus", "conditions": "dose not given", "scale": "baseline: TBI alone", "measurement": "log2 fold change", "value": -1.58}
{"SMILES": "CO[C@H]1C[C@@H]2CC[C@@H](C)[C@@](O)(O2)C(=O)C(=O)N2CCCC[C@H]2C(=O)O[C@H]([C@H](C)C[C@@H]2CC[C@@H](OC(=O)NCCOCCOCCOCCOCCOCCOCCOCCOCCC(=O)N3CCc4cc(Cn5nc(-c6ccc7oc(N)nc7c6)c6c(N)ncnc65)ccc4C3)[C@H](OC)C2)C[C@@H](O)[C@H](C)/C=C(\\C)[C@@H](O)[C@@H](OC)C(=O)[C@H](C)C[C@H](C)/C=C/C=C/C=C/1C", "test system": "patients with advanced solid tumours", "conditions": "intravenous, dose not given, any grade", "measurement": "incidence of Diarrhea TRAE", "value": "17.5%"}
{"SMILES": "c1ccc([C@@H]2C[C@H]2NC2CCNCC2)cc1", "tested on": "OCI-Ly1", "conditions": "1 µM, 120 h", "measurement": "viability", "value": "158%"}
{"SMILES": "COc1cc2c(Oc3ccc4[nH]c(C)cc4c3F)ccnc2cc1OCC1(N)CC1", "test system": "paediatric refractory sarcoma patients", "conditions": "8 mg", "measurement": "hand-foot syndrome incidence", "value": "0%"}
{"note": "Repeated from above:"}
{"SMILES": "CC(C)[C@H](N)C(=O)N1CCC[C@H]1B(O)O", "tested on": "Ker-CT CASP1 knockout", "test": "cell death, CellTiter-Glo", "conditions": "2 µM", "measurement": "viability", "value": "98.2% and 97% and 98.3%"}
